Assay results of several laboratories.
Each numbered part is a random draw from the data of one study; scales do not carry over between parts. Changes are numbered by the printed parent chain.
Chain of UniProt Q9ZSY8 (whole entry, looked up): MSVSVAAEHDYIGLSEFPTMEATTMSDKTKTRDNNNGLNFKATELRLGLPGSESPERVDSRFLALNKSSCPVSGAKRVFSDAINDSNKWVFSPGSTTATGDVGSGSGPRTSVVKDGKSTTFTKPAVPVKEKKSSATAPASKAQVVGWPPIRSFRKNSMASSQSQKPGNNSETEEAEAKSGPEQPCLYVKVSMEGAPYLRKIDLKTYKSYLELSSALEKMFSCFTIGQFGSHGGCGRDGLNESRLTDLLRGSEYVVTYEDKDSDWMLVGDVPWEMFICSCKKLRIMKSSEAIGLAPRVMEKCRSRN
Chain of UniProt Q9C5X0 (whole entry, looked up): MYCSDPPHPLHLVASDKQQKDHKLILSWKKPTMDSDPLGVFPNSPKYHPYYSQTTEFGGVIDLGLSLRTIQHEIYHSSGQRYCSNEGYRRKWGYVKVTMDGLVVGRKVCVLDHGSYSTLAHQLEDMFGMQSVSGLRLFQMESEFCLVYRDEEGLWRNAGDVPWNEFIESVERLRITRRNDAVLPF
Chain of UniProt Q94JM3 (whole entry, looked up): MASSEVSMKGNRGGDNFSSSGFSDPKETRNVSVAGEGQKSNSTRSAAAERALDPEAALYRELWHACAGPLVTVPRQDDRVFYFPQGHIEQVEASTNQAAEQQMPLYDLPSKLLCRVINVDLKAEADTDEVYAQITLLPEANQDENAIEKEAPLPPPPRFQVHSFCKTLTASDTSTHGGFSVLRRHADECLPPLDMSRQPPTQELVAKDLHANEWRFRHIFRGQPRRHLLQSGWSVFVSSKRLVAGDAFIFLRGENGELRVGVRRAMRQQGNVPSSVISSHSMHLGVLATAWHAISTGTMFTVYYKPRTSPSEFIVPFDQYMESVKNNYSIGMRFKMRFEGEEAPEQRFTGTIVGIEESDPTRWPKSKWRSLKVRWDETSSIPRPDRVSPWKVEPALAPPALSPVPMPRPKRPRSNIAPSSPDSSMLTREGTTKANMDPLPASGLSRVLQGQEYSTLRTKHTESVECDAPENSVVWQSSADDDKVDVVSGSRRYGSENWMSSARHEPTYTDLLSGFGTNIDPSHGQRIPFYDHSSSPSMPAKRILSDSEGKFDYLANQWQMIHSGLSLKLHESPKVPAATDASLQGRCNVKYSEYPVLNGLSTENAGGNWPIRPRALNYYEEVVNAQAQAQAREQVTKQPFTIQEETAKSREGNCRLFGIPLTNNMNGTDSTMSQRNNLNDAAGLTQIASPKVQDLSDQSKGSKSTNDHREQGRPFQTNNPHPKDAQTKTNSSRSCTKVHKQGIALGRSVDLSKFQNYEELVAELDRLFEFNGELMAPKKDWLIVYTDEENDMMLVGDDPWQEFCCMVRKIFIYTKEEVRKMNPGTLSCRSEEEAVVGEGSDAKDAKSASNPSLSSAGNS
Chain of UniProt Q8RYC6 (whole entry, looked up): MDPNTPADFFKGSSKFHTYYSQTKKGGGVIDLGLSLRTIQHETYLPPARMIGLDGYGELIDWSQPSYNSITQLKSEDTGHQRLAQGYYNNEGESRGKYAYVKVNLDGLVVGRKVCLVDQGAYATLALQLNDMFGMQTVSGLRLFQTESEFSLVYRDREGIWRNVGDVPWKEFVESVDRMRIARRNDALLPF
Chain of UniProt Q8L7G0 (whole entry, looked up): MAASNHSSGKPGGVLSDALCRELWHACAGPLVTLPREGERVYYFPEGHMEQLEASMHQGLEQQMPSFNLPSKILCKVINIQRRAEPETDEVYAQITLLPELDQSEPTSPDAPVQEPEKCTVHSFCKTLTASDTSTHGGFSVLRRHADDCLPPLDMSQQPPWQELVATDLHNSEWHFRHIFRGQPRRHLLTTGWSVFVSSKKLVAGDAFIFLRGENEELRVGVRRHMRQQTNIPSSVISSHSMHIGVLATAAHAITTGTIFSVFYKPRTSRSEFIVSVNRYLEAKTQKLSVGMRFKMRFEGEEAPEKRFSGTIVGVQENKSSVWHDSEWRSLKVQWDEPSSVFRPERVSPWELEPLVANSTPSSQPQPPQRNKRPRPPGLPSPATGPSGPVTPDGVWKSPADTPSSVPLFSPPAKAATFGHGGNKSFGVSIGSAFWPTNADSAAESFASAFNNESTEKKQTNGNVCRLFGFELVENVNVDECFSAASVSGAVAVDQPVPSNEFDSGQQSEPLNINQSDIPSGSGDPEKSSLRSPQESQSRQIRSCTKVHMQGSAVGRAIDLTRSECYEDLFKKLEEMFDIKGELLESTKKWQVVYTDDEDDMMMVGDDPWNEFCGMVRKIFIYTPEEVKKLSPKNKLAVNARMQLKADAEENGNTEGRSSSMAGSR
Chain of UniProt O23661 (whole entry, looked up): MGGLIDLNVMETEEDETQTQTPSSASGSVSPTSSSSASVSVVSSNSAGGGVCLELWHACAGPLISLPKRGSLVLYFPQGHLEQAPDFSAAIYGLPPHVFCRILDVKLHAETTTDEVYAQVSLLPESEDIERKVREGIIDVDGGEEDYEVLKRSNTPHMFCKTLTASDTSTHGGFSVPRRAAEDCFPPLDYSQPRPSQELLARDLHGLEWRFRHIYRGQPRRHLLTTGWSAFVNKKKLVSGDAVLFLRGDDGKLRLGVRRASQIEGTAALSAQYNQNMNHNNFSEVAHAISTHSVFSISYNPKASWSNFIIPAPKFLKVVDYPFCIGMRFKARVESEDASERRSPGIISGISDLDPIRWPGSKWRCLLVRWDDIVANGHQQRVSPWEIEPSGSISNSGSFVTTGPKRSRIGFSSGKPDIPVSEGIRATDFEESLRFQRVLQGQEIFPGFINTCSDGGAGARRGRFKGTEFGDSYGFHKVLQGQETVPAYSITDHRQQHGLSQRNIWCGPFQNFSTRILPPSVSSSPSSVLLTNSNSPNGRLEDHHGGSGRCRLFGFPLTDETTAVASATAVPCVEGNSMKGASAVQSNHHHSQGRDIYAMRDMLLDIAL
Chain of UniProt Q8H174 (whole entry, looked up): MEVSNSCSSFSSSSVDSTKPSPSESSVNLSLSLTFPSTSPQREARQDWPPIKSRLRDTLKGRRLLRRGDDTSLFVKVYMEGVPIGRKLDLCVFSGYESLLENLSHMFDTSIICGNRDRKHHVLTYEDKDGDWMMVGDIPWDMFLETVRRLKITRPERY

Series 1
Target: CEBPE, bZIP domain (human)
Method: DHFR protein complementation
Sample: yeast
Notes: single substitutions, most at no-binding floor
Baseline: wild-type JUN-FOS pair
Reading: higher = stronger binding
Starting sequence: JUN, bZIP domain (human); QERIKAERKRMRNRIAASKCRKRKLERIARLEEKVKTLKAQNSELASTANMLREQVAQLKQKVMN; partner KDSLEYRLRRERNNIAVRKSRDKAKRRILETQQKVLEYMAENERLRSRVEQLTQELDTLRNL
Change	binding fitness [natural log]
S47N	-0.971
V56W	-1.46
K36G	-1.32
Q55E	-1.13
L52C	-1.53
K36C	-1.21
S43I	-0.977
E54Y	-1.22
A29H	-1.21
A29D	-1.17
T48K	-0.958
V35P	-1.53
K34T	-1.19
L38R	-1.51
L38N	-1.54
R53I	-1.18
V56M	-1.38
Q55M	-1.25
R30Q	-0.964

Series 2
Target: Sal-like protein 4, full length isoform A (SALL4, Homo sapiens, UniProt Q9UJQ4, residues 1-1053)
Chain of UniProt Q9UJQ4 (whole entry, looked up): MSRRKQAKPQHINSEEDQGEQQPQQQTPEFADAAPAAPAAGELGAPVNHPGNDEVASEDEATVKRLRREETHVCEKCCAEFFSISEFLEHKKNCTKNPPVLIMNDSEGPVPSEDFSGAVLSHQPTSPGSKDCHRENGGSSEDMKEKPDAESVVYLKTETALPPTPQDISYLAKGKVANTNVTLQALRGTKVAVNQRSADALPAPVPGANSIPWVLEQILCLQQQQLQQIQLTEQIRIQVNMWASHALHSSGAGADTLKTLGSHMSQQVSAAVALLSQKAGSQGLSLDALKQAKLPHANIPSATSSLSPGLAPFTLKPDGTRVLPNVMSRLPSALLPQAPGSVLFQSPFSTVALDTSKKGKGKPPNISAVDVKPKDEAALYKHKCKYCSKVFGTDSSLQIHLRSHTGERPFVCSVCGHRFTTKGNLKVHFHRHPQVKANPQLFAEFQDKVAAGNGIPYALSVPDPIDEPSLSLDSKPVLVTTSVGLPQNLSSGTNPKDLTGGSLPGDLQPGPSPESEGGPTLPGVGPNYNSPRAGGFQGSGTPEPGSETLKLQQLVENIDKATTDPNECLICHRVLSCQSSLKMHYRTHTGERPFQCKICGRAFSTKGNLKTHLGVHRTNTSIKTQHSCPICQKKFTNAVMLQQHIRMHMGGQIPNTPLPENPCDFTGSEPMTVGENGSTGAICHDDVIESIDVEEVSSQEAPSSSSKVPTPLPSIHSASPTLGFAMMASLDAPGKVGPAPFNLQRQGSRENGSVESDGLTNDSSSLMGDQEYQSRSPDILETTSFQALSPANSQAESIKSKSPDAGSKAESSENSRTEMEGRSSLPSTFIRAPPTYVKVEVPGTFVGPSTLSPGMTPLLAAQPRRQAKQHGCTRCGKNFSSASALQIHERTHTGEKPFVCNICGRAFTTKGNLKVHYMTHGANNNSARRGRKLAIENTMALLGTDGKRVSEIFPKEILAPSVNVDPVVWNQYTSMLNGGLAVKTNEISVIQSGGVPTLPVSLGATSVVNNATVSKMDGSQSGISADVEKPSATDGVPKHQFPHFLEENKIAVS
Method: universal PBM
Molecule type: double-stranded DNA, one strand shown
Sample: in vitro
Concentration: 600 nM
Notes: 8-mer, flanks averaged, mean of replicates
Reading: higher = stronger binding
Oligonucleotide	E-score
GCGCACAA	-0.0316
CGGGCCAC	-0.31
ACCGGATC	-0.224
AAATTTGT	0.318
AGCTCAAT	0.0528
ATTATAGG	0.33
CTGTTGCC	-0.147
AGCCGGGG	-0.358
ACCGATCG	-0.0742
GGCAACCA	-0.158
AGGCCAAT	0.0362
TCAAGGCA	0.0151
GACGCGGC	-0.147
ACATCTCA	0.172
AAGGCGCC	-0.31
TACAGGTA	0.135
ACGGCCTC	-0.272

Series 3
Target: Centromere-binding protein 1, full length, N-terminal tag (CBF1, Saccharomyces cerevisiae, UniProt P17106, residues 1-351)
Chain of UniProt P17106 (whole entry, looked up): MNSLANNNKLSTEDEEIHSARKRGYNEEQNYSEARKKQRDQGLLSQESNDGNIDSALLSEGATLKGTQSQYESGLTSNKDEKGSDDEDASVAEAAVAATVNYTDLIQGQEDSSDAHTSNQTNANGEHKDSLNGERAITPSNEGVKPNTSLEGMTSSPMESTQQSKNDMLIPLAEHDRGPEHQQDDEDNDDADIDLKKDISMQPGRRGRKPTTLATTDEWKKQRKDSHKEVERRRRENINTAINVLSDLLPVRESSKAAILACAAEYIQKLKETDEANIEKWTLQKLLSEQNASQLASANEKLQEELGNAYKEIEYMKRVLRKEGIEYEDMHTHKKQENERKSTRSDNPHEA
Method: protein-binding microarray
Molecule type: double-stranded DNA, one strand shown
Sample: in vitro
Concentration: 0.8 µM
Notes: whole 60-bp probe, no competitor
Reading: higher = stronger binding
Oligonucleotide	fluorescence intensity
GAACCTGTCCTGTGGAGCCTGATGTAAATCAAATAGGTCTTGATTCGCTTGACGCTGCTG	599 a.u.
GAACAGTGTGGCGGTCACACTGGGCCCACTGGTTAGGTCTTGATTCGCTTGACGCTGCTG	524 a.u.
TGTACGAAGCTATCCTTCGTGCCTATAGTAGTTAGGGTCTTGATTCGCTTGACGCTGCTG	497 a.u.
CTATGAGATTCCCGACATCAGTAAGACATAGTATTCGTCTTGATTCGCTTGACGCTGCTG	507 a.u.
CTAAAAACCGTGCAGGACGTGGTCTAAGCTACTTTCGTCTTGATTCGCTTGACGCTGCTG	527 a.u.
CTAATAAATCATAATCACGTAAAGCCACCGAAATTCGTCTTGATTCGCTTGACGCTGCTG	581 a.u.
GAATCTCTGACTGGACTGATGATGTTGAAGCCCTAGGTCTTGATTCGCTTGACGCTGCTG	547 a.u.
GAAGCTTCCTCTATTGATGTTACACCTGGACACTAGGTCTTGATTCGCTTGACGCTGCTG	521 a.u.
CTACCCTGCATAGTTGTCACGGTTTGGACTATATTCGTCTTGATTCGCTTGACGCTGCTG	634 a.u.
GAAAACTATGGTTGTGACGTAAAAGTGGAGTGCTAGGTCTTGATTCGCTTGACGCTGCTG	610 a.u.
CTAAAATTATTAGTATCCGTGATTTTAGTACAATTCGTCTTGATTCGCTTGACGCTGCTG	584 a.u.
CTATCACTGTGCAATCACCTGATGATGTGGTTTTTCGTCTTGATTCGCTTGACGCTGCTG	1780 a.u.
CTAATCTGTCAGCAACATCAGTTGTGTGAGCAATTCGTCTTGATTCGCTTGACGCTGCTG	543 a.u.
CTATGTGTATGTTTCCACGTTTCTGCCTTGTGCTTCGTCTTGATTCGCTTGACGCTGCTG	558 a.u.
CTATTTGCAGATCATCACCCTGTGCGTTTTACATTCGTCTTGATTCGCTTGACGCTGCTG	619 a.u.

Series 4
Target: Histone acetyltransferase KAT6A, winged helix 2, GST fusion (KAT6A, Homo sapiens, UniProt Q92794, residues 85-181)
Method: protein binding microarray
Molecule type: double-stranded DNA, one strand shown
Sample: in vitro
Concentration: not given
Notes: 8-mer, flanks averaged, mean of 2 arrays, mostly near background
Baseline: not given
Reading: higher = stronger binding
Construct (chain): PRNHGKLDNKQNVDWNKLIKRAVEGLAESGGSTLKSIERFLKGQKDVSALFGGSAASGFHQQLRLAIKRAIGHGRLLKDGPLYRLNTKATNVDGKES
Oligonucleotide	E-score
GTTGGCTA	0.013
AAGGATTG	-0.101
AAGGTTGC	-0.0473
ATCCTCCA	-0.0396
CGCCCGAC	0.261
AGAGTGAA	0.14
AGCCGAGC	0.197
CATAACCG	-0.106
CCCCTTGC	-0.0478
AGACCTCG	0.1
AGCAACCA	0.192
ACTCTATG	-0.00392
CAGACTCC	-0.0469
TTATTCAA	0.244
AAAGTTTA	0.0462
ATTTACTG	-0.0563
ACGCGAAC	-0.076
AAACGAGG	0.0647
ATTATTTG	0.0753
ATACGCTG	-0.0261
AGATTGTC	-0.125
CACCAGGG	-0.0204
AACCTGCT	0.125
CCCGTGCG	0.183
CATGACTC	-0.147

Series 5
Target: UBE2E3 UBC core domain (UniProt Q969T4)
Chain of UniProt Q969T4 (whole entry, looked up): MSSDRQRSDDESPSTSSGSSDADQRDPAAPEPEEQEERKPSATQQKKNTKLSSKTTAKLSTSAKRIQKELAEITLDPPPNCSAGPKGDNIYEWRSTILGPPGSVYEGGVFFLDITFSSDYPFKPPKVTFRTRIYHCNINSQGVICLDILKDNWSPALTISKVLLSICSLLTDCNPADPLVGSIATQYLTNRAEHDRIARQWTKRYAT
Method: yeast two-hybrid
Sample: yeast
Notes: mostly zero background
Baseline: not given
Reading: higher = stronger interaction
B1: ANKIB1 RING domain (UniProt Q9P2G1); chain LSPGDLDTSLCDICMCSISVFEDPVDMPCGHDFCRGCWESFLNLKIQEGEAHNIFCPAYDCFQLVPVDIIE
B2: RNF43 RING domain (UniProt Q68DV7); chain SGSSCSSAPVCAICLEEFSEGQELRVISCLHEFHRNCVDPWLHQHRTCPLCMFNITEGDSFS
B3: PEX2 RING domain (UniProt P28328); chain DNTLATSGKECALCGEWPTMPHTIGCEHIFCYFCAKSSFLFDVYFTCPKCGTEVHSLQPLK
B4: NSMCE1 RING domain (UniProt Q8WV22); chain RETYPDAVKICNICHSLLIQGQSCETCGIRMHLPCVAKYFQSNAEPRCPHCNDYWPHEIPKV
B5: RNF14 RING domain (UniProt Q9UBS8); chain IKCFNSKLFLCSICFCEKLGSECMYFLECRHVYCKACLKDYFEIQIRDGQVQCLNCPEPKCPSVATPGQVK
B6: TRIM10 RING domain (UniProt Q9UDY6); chain SVTSLADEVNCPICQGTLREPVTIDCGHNFCRACLTRYCEIPGPDLEESPTCPLCKEPFRPGSFRP
Sequence	lacZ reporter activity
B1 (ANKIB1 RING domain)	0
B2 (RNF43 RING domain)	2790
B3 (PEX2 RING domain)	0
B4 (NSMCE1 RING domain)	0
B5 (RNF14 RING domain)	0
MANWVFCNRCFQPPHRTSCFSLTNCGHVYCDACLGKGKKNECLICKAPCRTVLLSK (RNF212 RING domain (UniProt Q495C1))	0
FLKKLEQSFMCVCCQELVYQPVTTECFHNVCKDCLQRSFKAQVFSCPACRHDLGQNYIMI (UHRF2 RING domain (UniProt Q96PU4))	0
B6 (TRIM10 RING domain)	0
ISNDSETLEECMVCSDMKRDTLFGPCGHIATCSLCSPRVKKCLICKEQVQSRTKIE (MIB1 RING domain (UniProt Q86YT6))	0

Series 6
Target: CCNE1, cyclin fold, Cln2 fusion (human)
Method: yeast growth competition, sequencing
Sample: yeast
Notes: weak parent motif
Baseline: not given
Reading: higher = stronger binding
Starting sequence: USP37 docking peptide (human); PSAKRSLGFLPQP
Change	normalised enrichment score
PSAKRSLAFLPQP [G8A]	0.214
PSAKASLGFLPQP [R5A]	-0.0534
PSAKRSLGFAPQP [L10A]	0.0762
PAAKRSLGFLPQP [S2A]	0.358
PSAKRALGFLPQP [S6A]	0.684
PSAKRSAGFLPQP [L7A]	0.276

Series 7
Target: ABI1, truncated, D143A, DHFR fusion (Arabidopsis thaliana, UniProt P49597)
Method: DHFR PCA, dose-response
Sample: yeast
Notes: Hill fit, mean, not affinity
Together with: (+)-ABA, dose series
Reading: lower = more sensitive
Starting sequence: PYL1, truncated, DHFR fusion (Arabidopsis thaliana, UniProt Q8VZS8); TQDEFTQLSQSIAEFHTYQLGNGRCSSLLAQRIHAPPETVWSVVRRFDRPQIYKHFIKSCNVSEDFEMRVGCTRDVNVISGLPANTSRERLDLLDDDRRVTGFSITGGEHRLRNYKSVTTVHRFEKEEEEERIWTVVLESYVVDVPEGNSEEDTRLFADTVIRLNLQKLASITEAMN
Change	ABA EC50 [µM]
T120Q	137
M68V	2.86
G148M	17.1
C25A	2.01
R69L	5.4
N85K	0.369
F5T	4.05
F15T	79.3
P146C	67.8
E174Q	2.52
E14C	16.7
V145I	2.96
V70E	6.82
E147C	4
I79H	2.75
F15L	13.6

Series 8
Molecule: IAA26 (Arabidopsis thaliana, UniProt Q8LAL2)
Chain of UniProt Q8LAL2 (whole entry, looked up): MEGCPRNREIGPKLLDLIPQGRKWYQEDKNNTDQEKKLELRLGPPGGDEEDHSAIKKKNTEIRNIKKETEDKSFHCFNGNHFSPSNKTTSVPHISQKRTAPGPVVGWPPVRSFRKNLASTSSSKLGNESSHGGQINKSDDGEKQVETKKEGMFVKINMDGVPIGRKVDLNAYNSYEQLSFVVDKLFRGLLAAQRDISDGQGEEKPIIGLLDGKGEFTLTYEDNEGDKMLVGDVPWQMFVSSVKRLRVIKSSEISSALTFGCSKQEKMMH
Method: two-hybrid
Reading: higher = firmer interaction
partner	baseline	positive tests
ARF2 727-859 (Arabidopsis thaliana, UniProt Q94JM3)	out of 4 tests	0
IAA32 (Arabidopsis thaliana, UniProt Q8RYC6)	out of 4 tests	1
IAA34 (Arabidopsis thaliana, UniProt Q9C5X0)	out of 4 tests	2
ETT (Arabidopsis thaliana, UniProt O23661)	out of 2 tests	0
ARF1 538-665 (Arabidopsis thaliana, UniProt Q8L7G0)	out of 4 tests	0
IAA31 (Arabidopsis thaliana, UniProt Q8H174)	out of 2 tests	0
ARF22 498-598 (Arabidopsis thaliana, UniProt Q9C8N7)	out of 2 tests	1
ARF5 788-902 (Arabidopsis thaliana, UniProt P93024)	out of 4 tests	1
ARF4 660-788 (Arabidopsis thaliana, UniProt Q9ZTX9)	out of 2 tests	0
ARF7 1030-1164 (Arabidopsis thaliana, UniProt P93022)	out of 4 tests	1
ARF6 790-935 (Arabidopsis thaliana, UniProt Q9ZTX8)	out of 2 tests	1
IAA27 (Arabidopsis thaliana, UniProt Q9ZSY8)	out of 2 tests	0
